Experimental data of several laboratories.
Numbered parts are unrelated; each lists some results of a single study. Changes are numbered by the printed parent chain.

Sample 1
Target: ABI1, truncated, D143A, DHFR fusion (Arabidopsis thaliana, UniProt P49597)
Method: DHFR PCA, dose-response
Medium: yeast
Setting: Hill fit, mean, not affinity
Together with: (+)-ABA, dose series
Direction: lower = more sensitive
Parent: PYL1, truncated, DHFR fusion (Arabidopsis thaliana, UniProt Q8VZS8); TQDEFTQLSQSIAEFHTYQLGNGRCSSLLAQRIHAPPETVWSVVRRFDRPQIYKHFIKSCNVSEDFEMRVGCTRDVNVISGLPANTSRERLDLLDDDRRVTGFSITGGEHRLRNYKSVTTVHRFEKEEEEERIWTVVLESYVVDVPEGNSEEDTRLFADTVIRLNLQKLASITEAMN
Variant | ABA EC50 [µM]
E89D | 156
D92W | 67.6
S87G | 503
F103I | 134
I33T | 225
E125S | 2.48
F47V | 766
N22L | 3.12
T39R | 1.97
N61I | 2.4
L164N | 7.62
D75G | 23.5
C60A | 18.2
E38R | 44.5
T173A | 1.82
L138T | 200
Q2D | 0.954

Sample 2
Target: Interferon regulatory factor 5, full length, phosphomimetic (IRF5, Homo sapiens, UniProt Q13568-2, residues 1-514, S451D/S453D/S456D/S462D)
Method: protein-binding microarray
Form: double-stranded DNA, one strand shown
Medium: in vitro
Tested at: 940 nM top
Setting: 60-bp whole probe
Together with: salmon DNA 0.4 mg/ml
Relative to: random background probes
Direction: higher = stronger binding
Shared flanks, not repeated: GCCTAGCAC … GTCTTGATTCGCTTGACGCTGCTG
Strand | fitted relative affinity
TTAGATTCCAGTTTCGGTTAGTGCTAG | 9.44 z-score
TTAGGACTGCTCTTCCTTTAGTGCTAG | -0.0939 z-score
TTAGAACTGGGGTATCTATTAGTGCTA | 0.535 z-score
GACGGACTGGGTATGGGGACGTGCTAG | 0.0195 z-score
GACGTTTTCGGGTTTCGGGACGTGCTA | 3.41 z-score
GACGGACTGCTTTTCCTGACGTGCTAG | -0.194 z-score
GGCGGTATCGGGTATCGGGACGTGCTA | 5.51 z-score
GCCGATATCGGGTTTCGAGACGTGCTA | 2.58 z-score
TCATTTTTACCTGTGGTACTGTGCTAG | 0.313 z-score
CACGGTATCGGGACTGGGGACGTGCTA | 2.89 z-score
TTAGGAGTGGGGACTGGGTTAGTGCTA | -0.104 z-score
TTAGGAATCCTACTGCTTTAGTGCTAG | -0.305 z-score
TTAGGTATGGGACTGGGTTAGTGCTAG | -0.177 z-score
TCAACACTAGTTTTCATACTGTGCTAG | 0.434 z-score
GACGGTCTCCTTTTCCTTACGTGCTAG | 0.757 z-score
CAATTCCTGAAATCTCTTTCCGTGCTA | 0.794 z-score
TTAGATCTCAGTTTCGAATAGTGCTAG | 3.84 z-score
TTAGGTCACCTTCTCCTTTAGTGCTAG | 0.333 z-score
TTTGGACTGGACTTTCGGTTAGTGCTA | 2.7 z-score

Sample 3
Target: Histone acetyltransferase KAT6A, both winged helices, GST fusion (KAT6A, Homo sapiens, UniProt Q92794, residues 1-181)
Method: protein binding microarray
Form: double-stranded DNA, one strand shown
Medium: in vitro
Tested at: not given
Setting: 8-mer, flanks averaged, mean of 2 arrays, mostly near background
Relative to: not given
Direction: higher = stronger binding
Construct (chain): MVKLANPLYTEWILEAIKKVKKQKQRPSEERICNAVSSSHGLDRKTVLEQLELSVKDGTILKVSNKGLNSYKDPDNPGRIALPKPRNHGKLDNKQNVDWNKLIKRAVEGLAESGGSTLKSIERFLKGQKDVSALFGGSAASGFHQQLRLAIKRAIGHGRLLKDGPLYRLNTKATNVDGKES
Strand | E-score
ATGGTAAG | -0.0102
CATGCCTC | 0.141
AGGGTCTG | -0.16
CGGTCGGC | 0.329
ACAGCCCG | 0.0491
AGGAGGAG | -0.0926
CAATAATA | -0.123
GCTGTGCC | -0.033
ATGTCGTA | -0.163
TGGATTAA | -0.127
ATGTGCCA | -0.117
CAGTCGAG | -0.213
CGTGTCAA | 0.129
CCGACCGC | 0.244
AACGCCTA | 0.044
CCTTTTGA | -0.12
CCGGATAA | 0.0785
ATTCTTCA | -0.0762
CGGGCACA | 0.0743
GGATATAC | 0.139

Single results of other studies
Method: yeast growth competition, sequencing
Medium: yeast
Setting: strong parent motif
Relative to: not given
Direction: higher = stronger binding
P1: CCP110 docking peptide (human); EKVKRRLDLDIDG; partner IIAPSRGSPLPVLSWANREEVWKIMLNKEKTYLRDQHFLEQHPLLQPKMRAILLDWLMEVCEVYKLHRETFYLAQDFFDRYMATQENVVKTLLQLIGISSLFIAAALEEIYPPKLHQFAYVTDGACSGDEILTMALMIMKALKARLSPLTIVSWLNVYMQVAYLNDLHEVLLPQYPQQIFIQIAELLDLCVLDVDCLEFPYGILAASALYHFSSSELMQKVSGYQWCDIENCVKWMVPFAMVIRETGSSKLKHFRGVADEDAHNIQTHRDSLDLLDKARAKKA
P2: AKAP12 docking peptide (human); GSPLKKLFTSTGL; partner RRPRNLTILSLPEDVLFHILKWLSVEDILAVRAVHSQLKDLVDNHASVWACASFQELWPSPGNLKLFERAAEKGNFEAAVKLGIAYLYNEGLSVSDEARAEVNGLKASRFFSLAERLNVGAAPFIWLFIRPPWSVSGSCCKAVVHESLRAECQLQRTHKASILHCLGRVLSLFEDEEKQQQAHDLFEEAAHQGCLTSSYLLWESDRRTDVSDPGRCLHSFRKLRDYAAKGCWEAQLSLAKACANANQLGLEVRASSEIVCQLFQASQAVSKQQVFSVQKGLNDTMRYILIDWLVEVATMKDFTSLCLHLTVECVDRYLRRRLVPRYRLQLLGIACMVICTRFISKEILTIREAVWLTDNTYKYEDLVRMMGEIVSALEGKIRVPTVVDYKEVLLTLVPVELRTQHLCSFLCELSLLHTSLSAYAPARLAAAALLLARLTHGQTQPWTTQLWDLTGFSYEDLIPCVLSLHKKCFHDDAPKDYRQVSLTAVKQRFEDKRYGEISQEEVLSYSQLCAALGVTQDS
Variant | target | normalised enrichment score
P1 D8A | CCNE1, cyclin fold, Cln2 fusion (human) | 1.31
P2 S2A | CCNF, cyclin fold, Cln2 fusion (human) | 2.17

A few entries again (sample 1):
Variant | ABA EC50 [µM]
T39R | 1.97
N61I | 2.4
L164N | 7.62
D75G | 23.5
C60A | 18.2
